Published values from different studies.
Parts stem from different laboratories: compare values within a part only.

Block 1
Target: RNA binding protein fox-1 homolog 2, RRM domain, GST-SBP tag (RBFOX2, Homo sapiens, UniProt O43251-10, residues 100-194)
Method: RNA Bind-n-Seq
Form: RNA
Matrix: in vitro
Concentration: 365 nM
Notes: natural RNA segment, single round, ends assumed
Baseline: no-protein control
Direction: higher = stronger binding
All sequences stand within: GGGAGUUCUACAGUCCGACGAUC … UGGAAUUCUCGGGUGCCAA
Construct (chain): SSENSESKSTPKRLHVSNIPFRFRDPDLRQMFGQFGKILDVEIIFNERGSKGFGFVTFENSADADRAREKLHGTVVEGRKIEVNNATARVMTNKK
Oligonucleotide | RBNS enrichment (R)
UAAAACCAUUCAGGGUAAUUUUUCUUGUCAGUGGCCAGUGGCAUCCCUGACCUCCAGAAAGAAGCCAUGCAGUAUAAACUCCUUGUGGUGAACAAGUCUGUUCAUGGCAA | 0.583
UCAUAAAUCUCAGCCAAUGGUCUUCAAAGCCUUUACCUGAAGAGACCACACUCCAACACGGAGCUGGGGGCAUCGCUCCACAAAGACCUGCUGUGGGAAGAGGGUACUGA | 0.327
GUUCUUUUGGGGGUAAGGGGCUAACUGCUCAAGAAAAUCUUGAUCCCCUCUCUUGUCUCCAUUAUUUUAAUUGCUUUUUCUGGCAGCACGGUGGGGACAGGGCAGAUUUA | 0.433
AGUAAGAAUGUUGCAUGUGAGAGAAGGGAUGUGACUGUGGACUCAGAUUGACACACACAGAUUGGUGGAAGAAUAGCUUCAGUCCUCUUCCUUCAUCCCAUAUGUAGGUA | 35.7
GCUGCCAGUCUUUCUCCCCUGCAGCUUCCUCUGCUUCUGGAAUGAACCAUGUAUCCUGGAGACCCUCCCAAUGGAUGAGAGUGGAAAGACAUCAGUACAACUGGACUUGG | 0.743
CCUCUCCUUCCACCCCUCAUUUCCUUUUUGCACACAUUACAGGUGGUGUGUUCUGUGAUAAUGAAAAGCAUCAGAAAAGCUUUUGUACUUUGUGGUUUCCUCUAUUUUGA | 1.17
GUAGCAAGGGAGCCCUACUGCAUAGCCAGUAACUCGCGUCUGUACCAUGGAAAGGGCGGAACGAUUCUCCAGGACAGCCAGCUCUUUCGUUGAAGAUCUAUCUAUGCAUU | 0.618
GCACUUUUGAACAGUCCCACAGUGCACAGGCCAUUUGAAGGAUGUAGAUGGCAGCCCUGGGCUGUCUCUGCUAUGGGGUGACCUUUCUACCUCCACACAAGACCCUGUUG | 0.223
GGAUAGAGACUGCUGGGUUCGUCCCAGCCUGCCCAUCCCUAUUACAAACACUGGACACCAUCACCUCUUUGGAACUGCCAGACCCUGGGAGUUCCCAGCGCGAAAGGUCU | 0.215
AACAAAAUGUUUCUUAAUUUUAUUGUGGAGUUACAACUUGCAUGUUCCUUACUCCUGUUGGCUUGAUGGAACAGGUGCAUUCACACUAUGAAACAGAAAGAUCUGUCCAA | 2.36
GGAGGCAGCGCCCGAAUGAAGAGGCCUGUAGUGGACAUGCUCCUAAUCUUGCUGUCUGCCUUCCUAGCCUUUUCCACCUUGGCUUGCCUCUGAGGGUAGAUUUUUUUUUU | 0.488
AAACCUUUCACUUUCCAAAGAGCUAGCCGUCCUCCACCCAGUACCAUGUCCUAGCCUGUCUGCAUUUGUUAGUGGUAAUAUUCUUUAUGUAUAAUAAAUUUUUAUACCCA | 2.56

Block 2
Target: Histone acetyltransferase KAT6A, both winged helices, GST fusion (KAT6A, Homo sapiens, UniProt Q92794, residues 1-181)
Method: protein binding microarray
Form: double-stranded DNA, one strand shown
Matrix: in vitro
Concentration: not given
Notes: 8-mer, flanks averaged, mean of 2 arrays, mostly near background
Baseline: not given
Direction: higher = stronger binding
Residues (chain): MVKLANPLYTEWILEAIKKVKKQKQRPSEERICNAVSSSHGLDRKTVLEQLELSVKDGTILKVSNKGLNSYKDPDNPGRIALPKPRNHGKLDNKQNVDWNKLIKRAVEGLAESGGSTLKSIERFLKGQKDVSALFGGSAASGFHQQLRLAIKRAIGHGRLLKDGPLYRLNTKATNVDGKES
Oligonucleotide | E-score
TCCGAGCA | -0.01
ACAGTCTC | -0.12
AAGGATTG | -0.096
ACTAGTAA | -0.129
ACGCTCTC | 0.156
CAAAGTCC | -0.114
AGCCCGAG | 0.096
CTTACCCA | -0.151
CATTTTGC | -0.0305
AGAGCTTA | -0.155
ATAAGACG | -0.0275
CAATAGGC | -0.0915
CGGAGGTA | -0.0726
CAACGTCA | -0.0301
CTTGGAGA | -0.112
TTCTGCAA | 0.0735
GAGTCTTA | 0.0545
GAAAGGTA | -0.0757
CCTCTAGC | -0.127
ACCTGCAA | -0.147
AATCCGTG | 0.147
CAGTGTGC | -0.0483

Block 3
Target: Phosphate system positive regulatory protein PHO4, full length, GST-tagged (PHO4, Saccharomyces cerevisiae, UniProt P07270, residues 1-312)
Method: competition protein-binding microarray
Form: double-stranded DNA, one strand shown
Matrix: in vitro
Concentration: 2 µM
Notes: whole 60-bp probe, lowest competitor level
With: Cbf1 competitor, 0.05 µM
Direction: higher = stronger binding
All sequences stand within: … GTCTTGATTCGCTTGACGCTGCTG
Construct (chain): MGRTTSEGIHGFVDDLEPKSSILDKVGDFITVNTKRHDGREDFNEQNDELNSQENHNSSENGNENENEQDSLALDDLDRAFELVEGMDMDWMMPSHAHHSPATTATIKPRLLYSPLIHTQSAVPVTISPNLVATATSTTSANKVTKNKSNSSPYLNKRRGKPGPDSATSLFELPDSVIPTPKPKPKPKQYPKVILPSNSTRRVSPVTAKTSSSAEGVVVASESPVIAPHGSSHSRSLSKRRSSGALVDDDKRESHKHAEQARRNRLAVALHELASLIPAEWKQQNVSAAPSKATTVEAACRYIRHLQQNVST
Oligonucleotide | fluorescence intensity
TCGGTTTTTCTTACCGTCGTGGCCGTAGAGGTGAGG | 7060 a.u.
ATATTTTTCCCGTCCTGCGTGCTGTCCCAATACAAT | 7000 a.u.
GTCTTGTCTCATTGAAACGTGGGTGTCCCCACTTCA | 13600 a.u.
AAAGCGGTAATTTGCCTGGTGGGTGCAGATATCTAT | 4080 a.u.
CTTTACCATTCCCATCACGGGAAGAGTGTGTTGGCA | 6300 a.u.
ACCAGCACCACCAACCACCTGAACCCCAACCATATT | 5230 a.u.
AACTTGTGCTTGAATCAAATGGTTACAGTGGACAGT | 4200 a.u.
ATTGTGGAATTGGCAGGCGTGACAAACAAATCCGAT | 6850 a.u.
CTTTCCCGATCTTGCCTAGTGGGTGTAGCACATTTG | 4700 a.u.
CGTCCTAGTGATTTTCACGTGGACTCCATGAGGAAG | 10600 a.u.
GCGCGATAGCGGCAGCGCGTGGCCGGGCAAGGGTCT | 8700 a.u.
CTTTCCCGATCTTGTCAAGTGGGTGTAGCACATTTG | 4380 a.u.
CTTCTGTAAATTTGTTTTGTGGGTGGACGCGCCCCG | 4520 a.u.
CGGGGTTAAGTTTGGCGTGTGGGTGGCTTGCAGCAG | 6140 a.u.
AAATTACTAAGTTGGGATGTGGGTGACGCCGTATGA | 4770 a.u.
ACTTTGGATTATCTGCTCGTGCAAATGAAATATACT | 9430 a.u.
CATACCCAACCTTGCGGGGTGGGTGAAGATATTTGT | 4630 a.u.
GAACCTGTGGAATTAAGCATGACAATTGGAAAGTCC | 4110 a.u.
GGACGCGTAGAGGCGCACGTGTCCCGGCCCGGAGCC | 16400 a.u.
GCGTAAGTCGCTCCACACGTACATTGCTGTGGTGCA | 5770 a.u.
CGTCCTAGTGATTGTCCAGTGGGTGCCATGAGGAAG | 6580 a.u.
AAAGCGGTAATTTGTACAGTGGGTGCAGATATCTAT | 4120 a.u.
GTCTTGTCTCATTGTCACTGAACTTTCCCCACTTCA | 4200 a.u.
AAATAAAGAAATCGGCACGCTGGACGTAATGAGGTT | 8150 a.u.
CGTCCTAGCGATTGATAGGTGGGTGCCATGAGGAAG | 6620 a.u.

Block 4
Target: UBE2L6 UBC core domain (UniProt O14933)
Method: yeast two-hybrid
Matrix: yeast
Notes: mostly zero background
Baseline: not given
Direction: higher = stronger interaction
B1: PEX2 RING domain (UniProt P28328); chain DNTLATSGKECALCGEWPTMPHTIGCEHIFCYFCAKSSFLFDVYFTCPKCGTEVHSLQPLK
B2: RFPL2 RING domain (UniProt O75678); chain MAALFQEASSCPVCSDYLEKPMSLECGCAVCLKCINSLQKEPHGEDLLCCCSSMVSRKNKIRR
B3: TRIM52 RING domain (UniProt Q96A61); chain PMQTLQEEAVCAICLDYFKDPVSISCGHNFCRGCVTQLWSKEDEEDQNEEEDEWEEEEDEEAV
B4: NSMCE1 RING domain (UniProt Q8WV22); chain RETYPDAVKICNICHSLLIQGQSCETCGIRMHLPCVAKYFQSNAEPRCPHCNDYWPHEIPKV
B5: TRIM15 RING domain (UniProt Q9C019); chain SLKVVHELPACTLCAGPLEDAVTIPCGHTFCRLCLPALSQMGAQSSGKILLCPLCQEEEQAETPMA
B6: TRIM10 RING domain (UniProt Q9UDY6); chain SVTSLADEVNCPICQGTLREPVTIDCGHNFCRACLTRYCEIPGPDLEESPTCPLCKEPFRPGSFRP
B7: RNF32 RING domain (UniProt Q9H0A6); chain SLLQGDSVQPCPICKEEFELRPQVLLSCSHVFHKACLQAFEKFTNKKTCPLCRKNQYQTRVIH
B8: TRIM55 RING domain (UniProt Q9BYV6); chain TMDNLEKQLICPICLEMFTKPVVILPCQHNLCRKCASDIFQASNPYLPTRGGTTMASGGRFRCPSCRHEVVLDRHG
B9: RNF5 RING domain (UniProt Q99942); chain ERGGAGATFECNICLETAREAVVSVCGHLYCWPCLHQWLETRPERQECPVCKAGISREKVVP
B10: UBE4A RING domain (UniProt Q14139); chain LQQQEEETYADACDEFLDPIMSTLMCDPVVLPSSRVTVDRSTIARHLLSDQTDPFNRSPLTMDQIRPNTELKEKIQRWLAERKQQKEQLE
Target sequence (chain): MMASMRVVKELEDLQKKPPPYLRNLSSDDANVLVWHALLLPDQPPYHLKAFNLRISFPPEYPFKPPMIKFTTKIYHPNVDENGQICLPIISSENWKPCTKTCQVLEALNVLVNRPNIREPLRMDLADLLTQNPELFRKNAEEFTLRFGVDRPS
Molecule | lacZ reporter activity
KRQCSDVDDICSICQAEFQKPILLICQHIFCEECMTLWFNREKTCPLCRTVISDHINKW (RNFT1 RING domain (UniProt Q5M7Z0)) | 0
KIKDLNEHIVCCLCAGYFVDATTITECLHTFCKSCIVKYLQTSKYCPMCNIKIHETQPLL (PCGF1 RING domain (UniProt Q9BSM1)) | 0
B1 (PEX2 RING domain) | 0
QLQDEEDDSLCRICMDAVIDCVLLECGHMVTCTKCGKRMSECPICRQYVVRAVHVF (RNF34 RING domain (UniProt Q969K3)) | 0
B2 (RFPL2 RING domain) | 0
B3 (TRIM52 RING domain) | 0
B4 (NSMCE1 RING domain) | 0
B5 (TRIM15 RING domain) | 0
B6 (TRIM10 RING domain) | 0
B7 (RNF32 RING domain) | 0
B8 (TRIM55 RING domain) | 0
SYEDKSNDFVCPICFDMIEEAYMTKCGHSFCYKCIHQSLEDNNRCPKCNYVVDNIDHLY (COP1 RING domain (UniProt Q8NHY2)) | 0
B9 (RNF5 RING domain) | 0
B10 (UBE4A RING domain) | 0

Some of these lines once more (block 4):
Molecule | lacZ reporter activity
QLQDEEDDSLCRICMDAVIDCVLLECGHMVTCTKCGKRMSECPICRQYVVRAVHVF (RNF34 RING domain (UniProt Q969K3)) | 0
B5 (TRIM15 RING domain) | 0
B10 (UBE4A RING domain) | 0
B8 (TRIM55 RING domain) | 0
SYEDKSNDFVCPICFDMIEEAYMTKCGHSFCYKCIHQSLEDNNRCPKCNYVVDNIDHLY (COP1 RING domain (UniProt Q8NHY2)) | 0
B9 (RNF5 RING domain) | 0
KIKDLNEHIVCCLCAGYFVDATTITECLHTFCKSCIVKYLQTSKYCPMCNIKIHETQPLL (PCGF1 RING domain (UniProt Q9BSM1)) | 0
KRQCSDVDDICSICQAEFQKPILLICQHIFCEECMTLWFNREKTCPLCRTVISDHINKW (RNFT1 RING domain (UniProt Q5M7Z0)) | 0
B7 (RNF32 RING domain) | 0
B3 (TRIM52 RING domain) | 0
B4 (NSMCE1 RING domain) | 0
B2 (RFPL2 RING domain) | 0
